Experimental data pooled from the literature.
Numbered parts are unrelated; each lists some results of a single study.

Study 1
Target: Prothrombin, mature alpha-thrombin (F2, Homo sapiens, UniProt P00734)
Technique: aptamer microarray, sandwich
Molecule type: DNA with 2'F-ANA
Sample: in vitro
Tested at: 200 nM
Notes: whole 15-mer aptamer, many near background
Added: Cy3 exosite-II aptamer, 400 nM
Reading: higher = stronger binding
Strand: GGTTGGTGTGGTTGG
`2'F-ANA at 1 2 3 4 8 9 11 13 14` — result for “mean fluorescence intensity”: 57.3 a.u.
Under “mean fluorescence intensity”, `2'F-ANA at 1 2 6 8 10 12 15` is recorded as 71.6 a.u.
For `2'F-ANA at 1 5 7 8 10 11 12 14 15`, “mean fluorescence intensity” read 47.6 a.u.
`2'F-ANA at 2 5 6 9 11`: “mean fluorescence intensity” 64.6 a.u.
`2'F-ANA at 1 2 4 5 7 9 10 13 14 15` — result for “mean fluorescence intensity”: 49.4 a.u.
Under “mean fluorescence intensity”, `2'F-ANA at 1 3 5 6 7 8 11 14` is recorded as 45.9 a.u.
`2'F-ANA at 2 3 7 8 9 10 11 13 14` — result for “mean fluorescence intensity”: 266 a.u.
Under “mean fluorescence intensity”, `2'F-ANA at 1 3 4 6 7 8 9 11 14` is recorded as 72 a.u.
`2'F-ANA at 2 4 5 7 8 10` — result for “mean fluorescence intensity”: 67.3 a.u.

Study 2
Target: Cyclic AMP-dependent transcription factor ATF-1, full length (ATF1, Homo sapiens, UniProt P18846, residues 1-271)
Technique: protein-binding microarray
Molecule type: hairpin DNA
Sample: in vitro
Tested at: not given
Notes: whole hairpin DNA, median over replicate spots
Reference: not given
Reading: higher = stronger binding
Constant ends, left off below: GAGGCCG … CGGCCTCACACTC
Residues (chain): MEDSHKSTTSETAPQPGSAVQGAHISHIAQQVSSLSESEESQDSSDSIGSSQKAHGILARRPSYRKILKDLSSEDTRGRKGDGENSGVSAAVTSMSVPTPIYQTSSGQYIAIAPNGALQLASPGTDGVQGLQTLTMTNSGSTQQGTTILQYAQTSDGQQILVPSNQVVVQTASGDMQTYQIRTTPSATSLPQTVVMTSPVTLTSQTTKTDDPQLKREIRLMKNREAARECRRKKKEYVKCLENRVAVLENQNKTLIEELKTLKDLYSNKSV
With `GCTGGCGTCAGCCTCCTGGCTGACGCCAGC` the median fluorescence was 3800 a.u.
`TATGACGTCAGCCTCCTGGCTGACGTCATA` has a median fluorescence of 10900 a.u.
`GATGACCTCAGCCTCCTGGCTGAGGTCATC` gave a median fluorescence of 3530 a.u.
`GATGAGGTCAGCCTCCTGGCTGACCTCATC` gave a median fluorescence of 3580 a.u.
The median fluorescence of `ACGACGTGGTGCCTCCTGGCACCACGTCGT (5mC at 9 29 30 35)` is reported as 5340 a.u.
`GCTGGCGTCAGCCTCCTGGCTGACGCCAGC (5mC at 33)` gave a median fluorescence of 7410 a.u.
With `GATGACGACAGCCTCCTGGCTGTCGTCATC` the median fluorescence was 5990 a.u.
For `GAAGACGTCAGCCTCCTGGCTGACGTCTTC`, the median fluorescence was 4540 a.u.
With `GCTGACGTCAGCCTCCTGGCTGACGTCAGC (5mC at 9)` the median fluorescence was 10700 a.u.
The median fluorescence of `GCTGACCGCAGCCTCCTGGCTGCGGTCAGC` is reported as 3460 a.u.

Study 3
Target: Hepatocyte nuclear factor 3-alpha (Foxa1, Mus musculus, UniProt P35582, residues 1-468, full length assumed)
Sequence of UniProt P35582 (whole entry, looked up): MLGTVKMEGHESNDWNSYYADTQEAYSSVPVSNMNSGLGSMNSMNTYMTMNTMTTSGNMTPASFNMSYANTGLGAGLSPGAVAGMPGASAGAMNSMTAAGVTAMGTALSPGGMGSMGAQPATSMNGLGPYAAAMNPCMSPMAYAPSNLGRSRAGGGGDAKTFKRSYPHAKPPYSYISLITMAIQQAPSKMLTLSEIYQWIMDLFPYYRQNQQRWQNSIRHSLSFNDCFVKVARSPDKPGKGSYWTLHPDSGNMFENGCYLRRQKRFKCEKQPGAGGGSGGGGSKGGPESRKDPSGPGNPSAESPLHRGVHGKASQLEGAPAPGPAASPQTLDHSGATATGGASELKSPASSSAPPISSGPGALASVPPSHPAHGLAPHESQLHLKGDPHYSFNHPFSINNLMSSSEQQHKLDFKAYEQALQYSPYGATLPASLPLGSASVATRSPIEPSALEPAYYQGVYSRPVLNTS
Technique: EMSA with sequencing
Molecule type: double-stranded DNA, one strand shown
Sample: in vitro
Tested at: 10 and 20 nM
Notes: whole designed probe, mean of two concentrations, ends assumed
Reference: negative control set to 0
Reading: higher = stronger binding
Constant ends, left off below: GTGAGCGGTGCCCATTGATGGGGAAC … TTTCACTGGGATCGTGGGGAC
Under “normalised bound fraction”, `ATCTTCCCCCTCTTCCTTGCCCCACCAGCTCACCTTCCCGGGTTATTTGCAGATAGGAAAATAAATAAAGCCGGCATTCGTTAACCCTCTTCACGCGCATACTGCTGTTTGCTCTGCATGAATCATGGTCCTTACGCGACGCCAGGCTCCGGGAGAGCAAAGCACCGTGTCAGGCGCATGATCCGGGGTGGCC` is recorded as 0.356 ratio.
For `AGGGATGTAGACAGAGAGGCAGTTTGAATAATTTTGGAGTACATTTTACTTTAGTTTGAATGGGAGATGGTAAGAGGCAACTGGTTGGCTAAGTAATCTGCAAAAAATAGCTTTAGGTTCAGAGTCTTTCCTTGATTTCCTCTCAATAGCTCTGAGCATAGTCCTACCGCAATTTGTAGTATAAAAACATAAC`, “normalised bound fraction” read -0.0433 ratio.
For `ATCTTCCCCCTCTTCCTTGCCCCACCAGCTCACCTTCCCGGGTATCTGCAAATAAGCAAAGTAAACAAAGCCGGCATTCGTTAACCCTCTTCTGGCGCAAACTGCCAGAGCAAACAGATGAATCATGGTCCTTTGGCGACGCCAGGCTCCGGGAGAGCAAAGCACCGTGTCAGGGCCATGATCCGGGGTGGCC`, “normalised bound fraction” read 0.514 ratio.
For `GCCACAGTTCAAGTTCAAAGAGAAACACTCTAGCAACTTCTGAAAGCAGGAACTGTATGCAACTGAAAGTCCACTTCCGGCACAGAAGCCAGAGCAAACAATGAAAAACAAACCGTACCAACTCTGGTACCAGTTACTGACCTTCCAGACCAAGAGAACGTGCTGGCAGCACTGGTGAAATGTACTTGTCTGT`, “normalised bound fraction” read 0.262 ratio.
`CTAGTTCCAGTCTTAGCATGGCAATTTCTTCCTGCAACACGCTGTTTTCACGCAAGAGATCTTCTTCTTTCTTATGACTAAGAGAAAGCTAAGTAATCTAAGGGAACTTTTAGTTAGCACTCAATAGAATGACATATCATGATTTCTTCTAAAATTAAAGAATGACATTTATATTTGTATAATGAAATAATTC` — result for “normalised bound fraction”: 0.206 ratio.
`CGTTTGCCAGCCCAAGATAGGCTGTGACAAAAGGAAGTGAGCCTTATCTATCAGTGGAGGTTGAACAACCAGCAACGTGAGTCATCCGCAAAAGTAATCTGCTGGGGCTAGATGCGGTGGCTCGCGCCTGTAATCCCAGCACTTTAGGAGGCCAAGGCAGGTGGATTACCTGAGGTCAGCCTGACCAACATGG`: “normalised bound fraction” -0.0645 ratio.
For `GACACCATTTCGAACAAAACAAAACAGTTGCTCCCTTCCCTCTTGTTCCTCCCACTATTGCTGTCATTGCAAGCTCCTAGGAGCTGCCCTGTTATTTACATTGCAGTGGGCATGACTCAGGGAAGCAGCAGGCAGGGAGGAGGATGGGAAGCAAGAACCCAGCTGGGGCTAAGCAAGGTCCAGCTCATAATAT`, “normalised bound fraction” read 0.412 ratio.
For `ATCTTCCCCCTCTTCCTTGCCCCACCAGCTCACCTTCCCGGGTTATTTGCACAAAGGAAAATAAATAAAGCCGGCATTCGTTAACCCTCTTCTGGCGCAAACTGCTGTTTGCTCTGGATGAATCATGGTCCTTTGGCGACGCCAGGCTCCGGGAGAGCAAAGCACCGTGTCAGGGCCATGATCCGGGGTGGCC`, “normalised bound fraction” read 0.351 ratio.

Mixed results
For `PhoQ, residues 284 288 289 292 302 303 MLMVEA`, the fold induction was 10.2 (PhoP, residues 12 14 15 18 19 NQGLL (Escherichia coli, UniProt P23836); Sort-seq, measured: YFP reporter; E. coli; PhoQ-PhoP variant library, added: 10 µM Mg2+; reference: high Mg2+ state, higher = stronger signaling).

A few entries again (study 3):
For `ATCTTCCCCCTCTTCCTTGCCCCACCAGCTCACCTTCCCGGGTATCTGCAAATAAGCAAAGTAAACAAAGCCGGCATTCGTTAACCCTCTTCTGGCGCAAACTGCCAGAGCAAACAGATGAATCATGGTCCTTTGGCGACGCCAGGCTCCGGGAGAGCAAAGCACCGTGTCAGGGCCATGATCCGGGGTGGCC`, “normalised bound fraction” read 0.514 ratio.
For `GCCACAGTTCAAGTTCAAAGAGAAACACTCTAGCAACTTCTGAAAGCAGGAACTGTATGCAACTGAAAGTCCACTTCCGGCACAGAAGCCAGAGCAAACAATGAAAAACAAACCGTACCAACTCTGGTACCAGTTACTGACCTTCCAGACCAAGAGAACGTGCTGGCAGCACTGGTGAAATGTACTTGTCTGT`, “normalised bound fraction” read 0.262 ratio.
`CTAGTTCCAGTCTTAGCATGGCAATTTCTTCCTGCAACACGCTGTTTTCACGCAAGAGATCTTCTTCTTTCTTATGACTAAGAGAAAGCTAAGTAATCTAAGGGAACTTTTAGTTAGCACTCAATAGAATGACATATCATGATTTCTTCTAAAATTAAAGAATGACATTTATATTTGTATAATGAAATAATTC` — result for “normalised bound fraction”: 0.206 ratio.
`CGTTTGCCAGCCCAAGATAGGCTGTGACAAAAGGAAGTGAGCCTTATCTATCAGTGGAGGTTGAACAACCAGCAACGTGAGTCATCCGCAAAAGTAATCTGCTGGGGCTAGATGCGGTGGCTCGCGCCTGTAATCCCAGCACTTTAGGAGGCCAAGGCAGGTGGATTACCTGAGGTCAGCCTGACCAACATGG`: “normalised bound fraction” -0.0645 ratio.
